Experimental data gathered from unrelated publications.
Protocols differ between the studies behind these lines. ± gives the spread as reported. No end group written: not given here.
CHRM1: Muscarinic acetylcholine receptor M1 (CHRM1, Homo sapiens, UniProt P11229)
Chain of UniProt P11229 (whole entry, looked up): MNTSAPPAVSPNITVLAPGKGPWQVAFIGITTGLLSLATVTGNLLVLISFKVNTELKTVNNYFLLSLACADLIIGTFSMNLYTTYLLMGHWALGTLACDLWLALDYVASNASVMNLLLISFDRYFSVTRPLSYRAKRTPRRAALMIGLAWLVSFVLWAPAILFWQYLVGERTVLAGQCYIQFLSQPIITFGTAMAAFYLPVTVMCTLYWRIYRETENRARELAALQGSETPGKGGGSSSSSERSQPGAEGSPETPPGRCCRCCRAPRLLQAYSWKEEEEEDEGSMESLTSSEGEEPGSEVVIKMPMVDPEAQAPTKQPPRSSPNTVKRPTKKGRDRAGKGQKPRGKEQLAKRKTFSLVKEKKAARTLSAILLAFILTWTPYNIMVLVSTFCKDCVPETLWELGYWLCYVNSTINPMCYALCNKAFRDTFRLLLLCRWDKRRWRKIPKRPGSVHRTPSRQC
CHRM4: Muscarinic acetylcholine receptor M4 (CHRM4, Homo sapiens, UniProt P08173)
Chain of UniProt P08173 (whole entry, looked up): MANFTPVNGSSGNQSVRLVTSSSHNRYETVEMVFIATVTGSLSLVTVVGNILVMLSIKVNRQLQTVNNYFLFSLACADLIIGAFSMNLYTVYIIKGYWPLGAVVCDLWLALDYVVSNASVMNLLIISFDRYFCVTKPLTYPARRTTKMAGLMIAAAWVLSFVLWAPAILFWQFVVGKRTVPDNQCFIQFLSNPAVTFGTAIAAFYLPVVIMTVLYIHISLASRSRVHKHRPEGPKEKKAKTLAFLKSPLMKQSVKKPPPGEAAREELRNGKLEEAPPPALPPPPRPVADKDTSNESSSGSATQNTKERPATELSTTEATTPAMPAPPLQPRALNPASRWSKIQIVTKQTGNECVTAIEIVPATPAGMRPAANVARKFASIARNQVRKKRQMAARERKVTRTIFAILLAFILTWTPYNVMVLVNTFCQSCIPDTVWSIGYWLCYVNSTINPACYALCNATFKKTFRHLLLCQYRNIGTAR
B1: side-chain stapled; chain RTKQEARKSTGG (also: sidechain bridge or staple (positions not given here))
Chain of UniProt Q21974 (whole entry, unmodified, looked up): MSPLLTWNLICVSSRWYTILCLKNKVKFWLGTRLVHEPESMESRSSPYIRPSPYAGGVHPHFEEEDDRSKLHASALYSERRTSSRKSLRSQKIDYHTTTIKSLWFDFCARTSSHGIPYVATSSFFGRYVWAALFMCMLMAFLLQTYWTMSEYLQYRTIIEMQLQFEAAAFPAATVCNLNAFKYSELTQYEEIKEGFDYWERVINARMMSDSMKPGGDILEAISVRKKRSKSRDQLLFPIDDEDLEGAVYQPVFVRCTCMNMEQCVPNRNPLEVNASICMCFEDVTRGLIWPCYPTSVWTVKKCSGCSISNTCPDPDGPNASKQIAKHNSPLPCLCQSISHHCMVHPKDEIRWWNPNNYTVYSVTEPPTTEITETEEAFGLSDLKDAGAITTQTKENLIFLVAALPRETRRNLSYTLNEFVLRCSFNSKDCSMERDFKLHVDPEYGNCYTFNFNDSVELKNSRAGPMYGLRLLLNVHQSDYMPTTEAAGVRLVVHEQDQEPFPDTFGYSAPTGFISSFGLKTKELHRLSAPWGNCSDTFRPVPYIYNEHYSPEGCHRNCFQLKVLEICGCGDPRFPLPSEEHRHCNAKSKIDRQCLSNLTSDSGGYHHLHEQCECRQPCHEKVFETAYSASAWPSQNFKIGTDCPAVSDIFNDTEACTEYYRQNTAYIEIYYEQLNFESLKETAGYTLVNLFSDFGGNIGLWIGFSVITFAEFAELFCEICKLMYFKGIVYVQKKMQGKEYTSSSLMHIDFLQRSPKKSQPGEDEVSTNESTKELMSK
Chain of UniProt P50391 (whole entry, looked up): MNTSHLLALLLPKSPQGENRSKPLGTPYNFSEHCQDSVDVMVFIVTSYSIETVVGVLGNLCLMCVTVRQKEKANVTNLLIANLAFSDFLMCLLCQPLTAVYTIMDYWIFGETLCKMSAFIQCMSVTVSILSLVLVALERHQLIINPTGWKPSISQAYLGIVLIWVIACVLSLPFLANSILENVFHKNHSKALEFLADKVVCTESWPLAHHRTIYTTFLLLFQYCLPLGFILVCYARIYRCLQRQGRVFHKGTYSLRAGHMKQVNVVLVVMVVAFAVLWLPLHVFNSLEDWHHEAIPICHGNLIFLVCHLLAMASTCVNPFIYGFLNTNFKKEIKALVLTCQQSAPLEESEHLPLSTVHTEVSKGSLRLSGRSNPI
Chain of UniProt Q9Y5Y9 (whole entry, looked up): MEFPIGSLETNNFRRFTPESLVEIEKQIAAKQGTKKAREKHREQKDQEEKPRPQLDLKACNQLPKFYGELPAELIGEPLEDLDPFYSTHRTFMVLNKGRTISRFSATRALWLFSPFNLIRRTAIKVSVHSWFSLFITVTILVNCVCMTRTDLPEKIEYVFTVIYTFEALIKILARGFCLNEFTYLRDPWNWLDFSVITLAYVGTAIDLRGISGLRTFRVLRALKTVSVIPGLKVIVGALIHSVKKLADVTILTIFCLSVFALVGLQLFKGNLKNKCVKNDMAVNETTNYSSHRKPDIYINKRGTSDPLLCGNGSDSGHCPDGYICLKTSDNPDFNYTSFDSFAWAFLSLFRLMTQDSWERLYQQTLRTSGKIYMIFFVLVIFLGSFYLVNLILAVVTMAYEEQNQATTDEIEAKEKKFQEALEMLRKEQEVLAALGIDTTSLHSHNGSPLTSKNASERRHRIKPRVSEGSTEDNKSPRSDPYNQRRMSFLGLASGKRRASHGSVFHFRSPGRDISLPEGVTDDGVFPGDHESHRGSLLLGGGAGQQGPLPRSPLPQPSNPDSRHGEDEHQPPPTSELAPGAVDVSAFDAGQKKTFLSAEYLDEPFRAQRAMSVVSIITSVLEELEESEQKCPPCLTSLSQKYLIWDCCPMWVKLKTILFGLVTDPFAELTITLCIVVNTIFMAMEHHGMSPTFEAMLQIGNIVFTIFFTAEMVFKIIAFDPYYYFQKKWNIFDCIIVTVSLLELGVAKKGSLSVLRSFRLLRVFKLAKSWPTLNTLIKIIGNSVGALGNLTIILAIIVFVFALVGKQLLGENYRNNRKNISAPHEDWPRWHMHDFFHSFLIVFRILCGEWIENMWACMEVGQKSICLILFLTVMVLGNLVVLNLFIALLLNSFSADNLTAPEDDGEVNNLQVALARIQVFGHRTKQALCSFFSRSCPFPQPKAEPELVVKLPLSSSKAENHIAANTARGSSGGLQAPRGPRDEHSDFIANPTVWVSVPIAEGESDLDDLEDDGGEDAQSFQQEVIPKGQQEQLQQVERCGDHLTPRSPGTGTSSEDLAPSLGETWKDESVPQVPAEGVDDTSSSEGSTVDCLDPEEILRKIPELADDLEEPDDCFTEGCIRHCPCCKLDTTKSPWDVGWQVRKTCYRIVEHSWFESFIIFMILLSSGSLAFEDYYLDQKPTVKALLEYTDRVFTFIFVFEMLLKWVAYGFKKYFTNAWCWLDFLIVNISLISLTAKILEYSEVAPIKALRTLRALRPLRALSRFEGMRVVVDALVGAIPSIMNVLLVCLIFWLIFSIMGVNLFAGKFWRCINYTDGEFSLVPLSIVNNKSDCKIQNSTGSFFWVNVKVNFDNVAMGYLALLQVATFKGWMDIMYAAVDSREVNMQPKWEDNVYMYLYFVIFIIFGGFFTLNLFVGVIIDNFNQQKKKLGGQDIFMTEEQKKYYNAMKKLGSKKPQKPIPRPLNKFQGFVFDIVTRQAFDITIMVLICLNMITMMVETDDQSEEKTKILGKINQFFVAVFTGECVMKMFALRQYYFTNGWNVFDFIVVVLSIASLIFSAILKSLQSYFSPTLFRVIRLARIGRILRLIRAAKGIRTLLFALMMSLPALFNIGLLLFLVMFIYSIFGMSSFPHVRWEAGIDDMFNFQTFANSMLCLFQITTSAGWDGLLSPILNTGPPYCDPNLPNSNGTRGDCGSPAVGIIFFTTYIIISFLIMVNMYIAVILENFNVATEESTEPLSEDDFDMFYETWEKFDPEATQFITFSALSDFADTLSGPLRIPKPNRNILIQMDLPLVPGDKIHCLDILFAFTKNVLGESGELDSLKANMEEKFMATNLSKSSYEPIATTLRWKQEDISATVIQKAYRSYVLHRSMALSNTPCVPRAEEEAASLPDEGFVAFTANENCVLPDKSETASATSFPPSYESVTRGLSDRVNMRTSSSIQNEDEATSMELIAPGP
Chain of UniProt Q8TDU6 (whole entry, looked up): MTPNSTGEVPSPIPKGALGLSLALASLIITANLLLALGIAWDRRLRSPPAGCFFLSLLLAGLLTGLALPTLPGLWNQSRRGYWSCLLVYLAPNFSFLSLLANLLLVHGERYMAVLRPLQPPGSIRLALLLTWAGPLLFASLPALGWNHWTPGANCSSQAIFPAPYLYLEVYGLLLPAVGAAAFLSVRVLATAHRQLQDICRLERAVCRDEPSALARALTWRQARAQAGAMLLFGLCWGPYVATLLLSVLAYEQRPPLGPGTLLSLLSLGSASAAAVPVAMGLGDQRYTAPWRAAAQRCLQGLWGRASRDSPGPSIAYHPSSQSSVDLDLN
Chain of UniProt P06748 (whole entry, looked up): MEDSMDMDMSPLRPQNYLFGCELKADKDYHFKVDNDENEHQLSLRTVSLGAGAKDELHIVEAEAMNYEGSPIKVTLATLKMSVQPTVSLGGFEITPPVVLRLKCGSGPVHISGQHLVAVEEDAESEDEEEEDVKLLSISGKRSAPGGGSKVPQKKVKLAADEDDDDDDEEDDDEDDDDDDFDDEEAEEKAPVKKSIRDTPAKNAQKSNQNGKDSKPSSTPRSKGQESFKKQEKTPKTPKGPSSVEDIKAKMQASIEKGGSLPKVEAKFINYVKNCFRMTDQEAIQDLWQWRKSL
Chain of UniProt Q8WTS6 (whole entry, looked up): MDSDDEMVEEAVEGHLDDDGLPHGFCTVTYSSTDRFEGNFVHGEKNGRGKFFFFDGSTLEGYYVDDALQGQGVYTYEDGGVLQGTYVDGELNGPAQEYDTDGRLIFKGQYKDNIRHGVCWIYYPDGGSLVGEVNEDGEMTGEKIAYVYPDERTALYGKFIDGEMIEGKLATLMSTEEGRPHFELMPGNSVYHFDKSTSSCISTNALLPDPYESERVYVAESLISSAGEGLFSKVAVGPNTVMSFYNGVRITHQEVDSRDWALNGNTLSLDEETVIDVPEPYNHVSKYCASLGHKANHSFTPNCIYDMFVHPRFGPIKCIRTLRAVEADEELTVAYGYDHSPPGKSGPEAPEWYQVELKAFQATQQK

Molecule | target | assay | test system | conditions | how to read | endpoint | value
CCCn1cc(-c2ccc(COc3ccccc3-c3cc(=O)n(C4CCCCC4O)cn3)cc2)cn1 (stereo not drawn) | CHRM1 | allosteric agonist, IP1 accumulation | CHO-M1 cells | 1 µM, unit not given | reference: maximum ACh response | change in baseline activity | 52.6 ± 2.7
NC(=O)[C@H](CCCN=C(N)CF)NC(=O)c1ccccc1 | PADI4 (Homo sapiens, UniProt Q9UM07) | inhibitor | MCF7, estrogen-stimulated, whole cell extract | concentration not given, 30 min, with: BFA probe and calcium | – | PAD4 labelling | inhibited
O=C1C=C(O)C(=O)c2ccccc21 | thyX (Mycobacterium tuberculosis, UniProt P9WG57) | oxidase activity, activator | – | aerobic, no CH2H4folate, with: 200 µM NADPH | – | activation constant | 9 ± 4 µM
CCCCCCCC(=O)NCCCC[C@H](NC(=O)[C@H](C)NC(=O)[C@H](CC(C)C)NC(=O)[C@H](CCC(N)=O)NC(=O)[C@H](CCCCN)NC(=O)[C@H](CCCNC(=N)N)NC(=O)[C@@H]1CCCN1C(=O)[C@H](C)NC(=O)[C@H](CCCCN)NC(=O)CNC(=O)CNC(=O)[C@@H](NC(=O)[C@@H]1CCC(=O)NCCCC[C@H](NC(=O)[C@H](CCSC)NC(=O)[C@@H](NC(=O)[C@H](CCCNC(=N)N)NC(=O)[C@H](C)N)[C@@H](C)O)C(=O)N[C@@H]([C@@H](C)O)C(=O)N[C@@H](C)C(=O)N[C@@H](CCCNC(=N)N)C(=O)N[C@@H](CCCCN)C(=O)N1)[C@@H](C)O)C(N)=O | Lysine-specific histone demethylase 1A, with CoREST (KDM1A, Homo sapiens, UniProt O60341) | demethylase activity, inhibitor, fluorescence | – | 500 nM | – | inhibition | 86 ± 3.1%
Nc1nc(Cl)nc2c1ncn2[C@@H]1O[C@@H]2COP(=O)(O)OC2[C@@H]1O (stereo partly drawn) | cAMP-dependent protein kinase type II-beta regulatory subunit, holoenzyme with catalytic subunit (Prkar2b, Rattus norvegicus, UniProt P12369, S112A) | PKA holoenzyme activation, activator, fluorescence anisotropy | – | – | reference: RIIβ over RIα, higher = RIIβ-selective | selectivity ratio | 0.9
COc1ccc(C)c2sc(NC(=O)c3ccc(F)cc3F)nc12 | CHRM4 | calcium mobilization, positive allosteric modulator | CHO expressing hM4 and Gqi5 | concentration not given, with: acetylcholine EC20 | – | activity | inactive
[Na+].[Na+].[Na+].[O]=[V]([O-])([O-])[O-] | ALPI (Bos taurus, UniProt P19111) | – | – | 0.76 µM, with: DiFMUP substrate | – | Km | 0.31 ± 0.04 µM
Cn1cc(-c2ccc(COc3ccccc3-c3ccn(C4CCCCC4O)c(=O)c3)cn2)cn1 (stereo not drawn) | CHRM1 | IP1 accumulation, positive allosteric modulator, operational allosteric model | human cells | pKB fixed to published value, with: acetylcholine | – | log τB (efficacy) | 2.11 ± 0.12
C[C@H](CCCOc1cccc(CO)c1)[C@H]1CC[C@H]2[C@@H]3CC=C4C[C@@H](O)CC[C@]4(C)[C@H]3CC[C@]12C | GPBAR1 (Homo sapiens, UniProt Q8TDU6) | CRE reporter gene, agonist, luciferase reporter | HEK293T transfected | 10 µM | reference: TLCA | Emax | ~129%
CCCCCCCCCCCCCCCC(=O)N[C@@H](CCC(=O)NCCCC[C@H](NC(=O)[C@H](CCC(=O)O)NC(=O)[C@@H]1CCCN1C(=O)[C@@H](NC(=O)[C@H](C)NC(=O)[C@H](CC(N)=O)NC(=O)[C@H](CC(=O)O)NC(=O)CNC(=O)[C@@H]1CCCN1C(=O)[C@H](Cc1ccc(O)cc1)NC(=O)[C@@H](NC(=O)[C@@H]1CCCN1C(=O)[C@H](CCC(=O)O)NC(=O)[C@H](CC(C)C)NC(=O)[C@@H]1CCCN1C(=O)[C@H](C)NC(=O)c1ccc2c(c1)C(=O)OC21c2ccc(O)cc2Oc2cc(O)ccc21)C(C)C)[C@@H](C)O)C(=O)N[C@@H](CCSC)C(=O)N[C@@H](C)C(=O)N[C@@H](CCC(N)=O)C(=O)N[C@@H](Cc1ccc(O)cc1)C(=O)N[C@@H](C)C(=O)N[C@@H](C)C(=O)N[C@@H](CC(=O)O)C(=O)N[C@@H](CC(C)C)C(=O)N[C@@H](CCCNC(=N)N)C(=O)N[C@@H](CCCNC(=N)N)C(=O)N[C@@H](Cc1ccc(O)cc1)C(=O)N[C@H](C(=O)N[C@@H](CC(N)=O)C(=O)N[C@@H](CCSC)C(=O)N[C@@H](CC(C)C)C(=O)N[C@H](C(=O)N[C@@H](CCCNC(=N)N)C(=O)N1CCC[C@H]1C(=O)N[C@@H](CCCNC(=N)N)C(=O)N[C@@H](Cc1ccc(O)cc1)C(N)=O)[C@@H](C)O)[C@@H](C)CC)C(=O)O | NPY4R (Homo sapiens, UniProt P50391) | radioligand displacement | COS-7 transiently expressing | 1 µM, 90 min, room temperature, with: [3H]-hPP 1 nM | reference: total binding | specific binding | 36%
Cc1cc(Nc2ncc(Cl)c(Nc3ccccc3S(=O)(=O)C(C)C)n2)c(OC(C)C)cc1C1CCN(CC(=O)NCCNc2cccc3c2C(=O)N(C2CCC(=O)NC2=O)C3=O)CC1 (stereo not drawn) | NPM/ALK (Nucleophosmin/ALK tyrosine kinase receptor) (NPM1/ALK, Homo sapiens, UniProt P06748+Q9UM73) | protein degradation, degrader, western blot | SU-DHL-1 | 100 nM, 2 h, after washout | – | recovery onset time | 8 h
COC(=O)c1scc(C)c1NC(=O)C(C)N1CC(C)OC(C)(C)C1 (stereo not drawn) | SCN10A (Homo sapiens, UniProt Q9Y5Y9) | cell membrane chromatography | – | – | higher = stronger binding | capacity factor k′ | 44
O=C(Nc1ccc(-n2nc(C(F)(F)F)cc2C(F)(F)F)cc1)c1ccncc1F | TRPC3 (Homo sapiens, UniProt Q13507) | TRPC3 receptor-operated current, inhibitor, patch clamp | HEK293 transiently expressing TRPC3 | 3 µM, with: carbachol maximal activation | – | peak current | -9.5 ± 2.66 pA/pF
CN(c1ccccc1Cl)S(=O)(=O)C1CC2OC1C(c1ccc(O)cc1)=C2c1ccc(O)cc1 (stereo not drawn) | ESR2 (Homo sapiens, UniProt Q92731) | reporter gene, antagonist | HepG2 | with: estradiol 10 nM | reference: E2 response, negative is inverse agonism | efficacy | -24 ± 3%
Fc1ccc2[nH]ccc2c1 | Dehaloperoxidase B, ferric (Amphitrite ornata, UniProt Q9NAV7) | substrate, HPLC | 5% methanol | 5 min, pH 7, 25 °C, enzyme 10 µM, with: H2O2 500 µM | – | conversion | 26%
O=C(Nc1nc2cccnc2s1)C1CCCC1 | CHRM4 | calcium mobilization, positive allosteric modulator | CHO expressing hM4 and Gqi5 | concentration not given, with: acetylcholine EC20 | – | activity | inactive
O=C(O)[C@H]1O[C@@H](Oc2c(-c3ccc(O)cc3)oc3cc(O)ccc3c2=O)[C@H](O)[C@@H](O)[C@@H]1O | UGT1A1 (Homo sapiens, UniProt P22309) | glucuronidation, substrate, Supersomes | – | – | – | Vmax | 3.87 ± 0.84 nmol/mg/min
B1 | SETD7 (Homo sapiens, UniProt Q8WTS6) | peptide methylation, substrate, MALDI-TOF MS | – | 10 µM, 3 h, pH 8.0, 37 °C, enzyme 500 nM, with: SAM 30 µM | – | methylation conversion | ~16%
COC(=O)c1ccc(COc2ccccc2-c2cc(=O)n(C3CCCCC3O)cn2)cc1 (stereo not drawn) | CHRM1 | positive allosteric modulator, IP1 accumulation | CHO-M1 cells | 1 µM, 60 min, 37 °C, with: ACh | reference: ACh alone, higher = stronger potentiation | ΔpEC50 of ACh | 0.71 ± 0.09 log units
CC1=CC(=O)CC(C)(C)C1=O | Uncharacterized protein PH0856 (Pyrococcus horikoshii, UniProt O58586) | – | – | 24 h, pH 7, 30 °C, aerobic, with: 10 mM substrate, 15 mM NAD(P)H | – | conversion | 7 to 29%
Ac-GPSLNPFDEED-NH2 (N-acetyl, C-amide) | mouse EHD1 EH domain | binding, ITC | peptide | pH 7.0, 20 °C, KCl 0 mM | – | Ka | 814000 M⁻¹
Cn1ncc2cc(COc3ccccc3-c3cc(=O)n(C4CCCCC4O)cn3)ccc21 (stereo not drawn) | CHRM1 | allosteric agonist, IP1 accumulation | CHO-M1 cells | 1 µM, unit not given | reference: maximum ACh response | change in baseline activity | 69.8 ± 2.3
CCCCC1CC1C(=O)Nc1nc2c(OC)ccc(C)c2s1 (stereo not drawn) | CHRM4 | calcium mobilization, positive allosteric modulator | CHO expressing hM4 and Gqi5 | concentration not given, with: acetylcholine EC20 | – | activity | inactive
CC[C@H](C)[C@H](NC(=O)[C@H](CC(C)C)NC(=O)[C@H](CC(C)C)NC(=O)CNC(=O)[C@H](Cc1ccc(O)cc1)NC(=O)[C@H](CCCNC(=N)N)NC(=O)[C@H](CO)NC(C)=O)C(=O)N[C@@H](CCCCN)C(=O)N[C@@H](C)C(=O)N[C@@H](Cc1ccccc1)C(=O)N[C@@H](CO)C(=O)N[C@@H](CCSC)C(=O)N[C@H](C(=O)N[C@@H](C)C(=O)N[C@@H](C)C(=O)N[C@@H](CCC(=O)O)C(=O)N[C@H](C(=O)N[C@@H](C)C(=O)N[C@@H](CCCNC(=N)N)C(=O)N[C@@H](CCCNC(=N)N)C(=O)N[C@H](C(=O)N[C@@H](CCCNC(=N)N)C(=O)N[C@@H](CCC(=O)O)C(=O)N[C@@H](Cc1ccccc1)C(=O)N[C@@H](CCCNC(=N)N)C(N)=O)[C@@H](C)O)[C@@H](C)O)[C@@H](C)O | calmodulin 76-148 sites III and IV | calcium binding, Tyr fluorescence titration | – | 12 µM, pH 7.4, 22 °C, with: 6 µM calmodulin | – | apparent ΔG1 | -6.99 ± 0.56 kcal/mol
CIKVAVS | human polyclonal IgM rheumatoid factor | binding to mAb II-481 | peptide | combined CDR peptides, serum MCC | – | maximum inhibition | 0%
CC(=O)Oc1ccccc1C(=O)O | unc-8 (Caenorhabditis elegans, UniProt Q21974, G387E) | ion current, two-electrode voltage clamp | Xenopus oocytes coexpressing MEC-2 | 30 µM, -85 mV | reference: uninjected oocytes, positive = inhibition | current change | -0.071 µA
COc1ccc2cc1Oc1ccc(cc1)C[C@H]1c3c(cc4c(c3Oc3cc5c(cc3OC)CCN(C)[C@@H]5C2)OCO4)CCN1C | Heat shock protein HSP 90-alpha, C-terminal domain (HSP90AA1, Homo sapiens, UniProt P07900) | binding, zonal affinity chromatography | – | pH 7.4, 25 °C | – | retention factor | 22.9
